Measurements pooled from the literature.
Each line is one published result; not all experiments were run side by side. “And” joins repeats or separate records; there may be more than shown. ± marks the error that the study gave.

`CCc1cnc(NC(=O)c2cc(S(=O)(=O)N3CCOCC3)ccc2N(C)C2CCCC2)s1`: “blood counts, chemistry, organ cytopathology” “no effect” (mouse; intraperitoneal, three doses every other day, 24 h after last dose; baseline: vehicle).
`CN[C@H](CC(C)C)C(=O)N[C@H]1C(=O)N[C@@H](CC(N)=O)C(=O)N[C@H]2C(=O)N[C@H]3C(=O)N[C@H](C(=O)N[C@H](C(=O)O)c4cc(O)cc(O)c4-c4cc3ccc4O)[C@H](O)c3ccc(c(Cl)c3)Oc3cc2cc(c3O[C@@H]2O[C@H](CO)[C@@H](O)[C@H](O)[C@H]2O[C@H]2C[C@](C)(N)[C@H](O)[C@H](C)O2)Oc2ccc(cc2Cl)[C@H]1O`: “blood urea nitrogen” “increased” (C57BL/6 mouse; ip, 20 mg/kg, 7 days; baseline: control).
For `CCCCCNC(=O)N1CCC(CN(Cc2ccc(Cl)cc2)Cc2ccc([N+](=O)[O-])s2)C1` (centres unmarked), “blood cell fraction” read 18 ± 3.6% (measured: NE%; C57BL/6 mouse, blood; 100 mg/kg twice daily, 7 days).
`CC(=O)OC[C@H]1OC(OC(C)=O)[C@@H](NC(=O)CN=[N+]=[N-])[C@@H](OC(C)=O)[C@@H]1OC(C)=O` (some centres unmarked) — result for “blood cell counts”: “no effect” (measured: RBC and WBC; C57BL/6 mouse; dose not given; baseline: PBS).
For `COC1=C(OC)[C@H](O)[C@H](C/C=C(\C)CC/C=C(\C)CCC=C(C)C)[C@@H](C)C1=O`, the blood concentration was 41.8 nM and 30.9 nM (mouse, BALB/c, male, whole blood; oral, 50 mg/kg, 1 h).
`O=C(O)CCCOc1ccc([18F])cc1-c1cc(-c2ccccc2C(F)(F)F)n(-c2ccccc2)n1` has a blood radioactivity of 0.29 ± 0.08 SUV (18F biodistribution; male ddY mouse, whole blood; intravenous, 2.1 MBq, 5 min).
`Cc1cc(Nc2ccc(S(F)(F)(F)(F)F)cc2)n2nc(C(C)(F)F)nc2n1` has a blood concentration of 318000 ± 144000 nM (CD-1 mouse, female, whole blood; oral, 300 mg/kg daily, 8 h after dose 1, spray-dried dispersion).
Under “blood to plasma ratio”, `CC1(C)c2nc(-c3ccc(F)cc3)c(Nc3ccc(F)cc3)n2CCN1C(=O)CN` is recorded as 1.56 (mouse; baseline: blood over plasma).

For quick reference, copied from above:
For `COC1=C(OC)[C@H](O)[C@H](C/C=C(\C)CC/C=C(\C)CCC=C(C)C)[C@@H](C)C1=O`, the blood concentration was 41.8 nM and 30.9 nM (mouse, BALB/c, male, whole blood; oral, 50 mg/kg, 1 h).
